Assay results gathered from unrelated publications.
Every numbered part comes from another study and shows a few of its results, in no order. Values joined by “and” are separate records of one study, mostly repeats; a detail may differ. Substitutions count along the parent as printed.

Block 1
Target: CCNB1, cyclin fold, Cln2 fusion (human)
Method: yeast growth competition, sequencing
Sample: yeast
Setting: weak parent motif
Baseline: not given
Reading: higher = stronger binding
Quantity: normalised enrichment score
Starting sequence: CDKN1B docking peptide (human); PSACRNLFGPVDH
G9A: 0.399
S2E: 0.281
V11H: 1.36
N6A: 0.82
V11M: 0.382
L7N: 0.24
F8N: 0.256
D12Q: 0.574
R5M: 0.349
F8R: 0.666
R5N: 0.422
H13C: -0.0373
A3L: 1.31
A3I: 2.22
C4Y: 0.618
D12A: 0.684
R5K: 0.0687
D12N: 0.997
L7Q: 0.18
C4E: 0.306
A3F: 0.731
V11S: 0.198
A3E: 0.57
H13N: 0.438
D12F: 0.298

Block 2
Target: Ras GTPase-activating protein-binding protein 1, full length (G3BP1, Homo sapiens, UniProt Q13283)
Sequence of UniProt Q13283 (whole entry, looked up): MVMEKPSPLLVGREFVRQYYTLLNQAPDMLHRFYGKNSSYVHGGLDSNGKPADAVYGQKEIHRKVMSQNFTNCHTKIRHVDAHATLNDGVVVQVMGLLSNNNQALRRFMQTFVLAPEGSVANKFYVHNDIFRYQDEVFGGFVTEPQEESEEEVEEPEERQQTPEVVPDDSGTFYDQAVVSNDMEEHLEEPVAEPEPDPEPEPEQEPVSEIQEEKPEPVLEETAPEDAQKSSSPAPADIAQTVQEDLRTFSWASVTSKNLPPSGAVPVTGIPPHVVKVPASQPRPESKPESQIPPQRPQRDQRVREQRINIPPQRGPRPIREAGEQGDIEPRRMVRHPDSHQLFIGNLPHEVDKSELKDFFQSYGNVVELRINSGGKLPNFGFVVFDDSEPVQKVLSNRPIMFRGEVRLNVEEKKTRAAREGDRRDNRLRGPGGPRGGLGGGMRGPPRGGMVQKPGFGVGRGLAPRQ
Method: RNA Bind-n-Seq
Molecule type: RNA
Sample: in vitro
Concentration: 200 nM
Setting: whole 134-nt RNA, ends assumed
Added: 150 mM LiCl
Baseline: input library
Reading: higher = stronger binding
Quantity: log2 enrichment
Library: 7-deaza-guanosine replaces G
Shared flanks, not repeated: GGGAGUUCUACAGUCCGACGAUC … UGGAAUUCUCGGGUGUCAAGG
CACAGACAAGACGCACCCACACAGACACAGAGGGAAGGGGUUGGGAUGGGGACAGGGUGCACAGCAGGGCGGGGUAGGACCCCAGCCCCU: 0.489
UCAAGUCCUGUGCUACACAUCGUAUGUACCGAAUCGGUGGUUUUUUUGGUUUGGAAAGUAUUAUGUUACGCCGUUCGGAUCUGCACUUCC: -0.565
AAGUCCUGUGCUACACAUCGUAUGUACCGAAUCGGUUUUUUUGGUUUGGUUUUUGGAAAGUAUUAUGUUACGCCGUUCGGAUCUGCACUU: -1.9
AAGUCCUGUGCUACACAUCGUAUGUACCGAAUCGGGUUUGGGUUUGGGAAAAAGGGAAAGUAUUAUGUUACGCCGUUCGGAUCUGCACUU: -0.715
GACAGACAACACGCACCCACACAGACACAGAGGGAAGGGGUUGGGAUGGGGACAGGGUGCACAGCAGGGCGGGGUAGGACCCCAGCCCCU: 0.627
GCAGGAAGUAAAAACAAAUGGAAAUGCUUCGGGUAGUGGCAGGGGUGGGGGUUGCUAAGGAAAGGGUGGGAUGGGAGUGGGUAAAGAGUU: -0.254
CUGUGCUACACAUCGUAUGUACCGAAUCGGGGAAAAAAAGGGGAAAAAAAGGGGUUUGGGGAAAGUAUUAUGUUACGCCGUUCGGAUCUG: -1.07
UACCUUUAGAGGAGGAUCUGAUGGAUAUGGCAGUGGACGUGGAUUUGGGGAUGGCUAUAAUGGGUAUGGAGGAGGACCUGGAGGUGGCAA: 0.174
GUCCUGUGCUACACAUCGUAUGUACCGAAUCGGAAAAAGGAAAAAAAGGUUUUUUUGGAAAGUAUUAUGUUACGCCGUUCGGAUCUGCAC: -1.99
UAACUUUAGAGGAGGAUCUGAUGGAUAUGGCAGUGGACGUGGAUUUGGGGAUGGCUAUAAUGCGUAUGGAGGAGGACCUGGAGGUGGCAA: 0.319
UCCUGUGCUACACAUCGUAUGUACCGAAUCGGGGUUUUUUGGGUUUUUUGGGUUUUUUGGAAAGUAUUAUGUUACGCCGUUCGGAUCUGC: 0.701

Block 3
Target: Prothrombin, mature alpha-thrombin (F2, Homo sapiens, UniProt P00734)
Method: aptamer microarray, sandwich
Molecule type: DNA with 2'F-ANA
Sample: in vitro
Concentration: 200 nM
Setting: whole 15-mer aptamer, many near background
Added: Cy3 exosite-II aptamer, 400 nM
Reading: higher = stronger binding
Quantity: mean fluorescence intensity
Strand: GGTTGGTGTGGTTGG
2'F-ANA at 7 8 10 12 13 14: 108 a.u.
2'F-ANA at 2 6 7 10 11 15: 90.4 a.u.
2'F-ANA at 1 5 6 8 10 11 13 14 15: 57.1 a.u.
2'F-ANA at 1 3 4 7 10 14 15: 55.4 a.u.
2'F-ANA at 1 2 4 8 9 10 11 12 15: 58.2 a.u.
2'F-ANA at 2 5 6 10 12 13 14: 45.6 a.u.
2'F-ANA at 3 6 8 9 13 15: 832 a.u.
2'F-ANA at 1 8 11 12 14: 72.2 a.u.
2'F-ANA at 1 3 4 5 6 7 8 10 13 15: 47.6 a.u.
2'F-ANA at 3 5 7 8 10 11 15: 65.8 a.u.
2'F-ANA at 6 8 9 10 11 12 13: 166 a.u.
2'F-ANA at 2 5 8 13 15: 57.3 a.u.
2'F-ANA at 1 2 4 6 7 8 9 10 14 15: 59 a.u.
2'F-ANA at 4 6 8 11 12 13 14 15: 99.2 a.u.
2'F-ANA at 6 9 10 11 12 13 14: 95.2 a.u.
2'F-ANA at 1 3 6 8 9 10 11 13: 71.9 a.u.
2'F-ANA at 1 2 6 8 9 10 11 13: 45.9 a.u.
2'F-ANA at 4 5 8 9 10 11 14: 43.9 a.u.
2'F-ANA at 4 5 8 13: 51.1 a.u.
2'F-ANA at 1 2 4 6 7 11 13 14: 49.9 a.u.

Block 4
Target: ABI1, truncated, D143A, DHFR fusion (Arabidopsis thaliana)
Method: DHFR PCA, deep sequencing
Sample: yeast
Setting: methotrexate growth selection, single substitutions
Added: (+)-ABA 0.0091 µM
Baseline: wild-type fitted maximum
Reading: higher = stronger binding
Quantity: relative binding score
Starting sequence: PYL1, truncated, DHFR fusion (Arabidopsis thaliana); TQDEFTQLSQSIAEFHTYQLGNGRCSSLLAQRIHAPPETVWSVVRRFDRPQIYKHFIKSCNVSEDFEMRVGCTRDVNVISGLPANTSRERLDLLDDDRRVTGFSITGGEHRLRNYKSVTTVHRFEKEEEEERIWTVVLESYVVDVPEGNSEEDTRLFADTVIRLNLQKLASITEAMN; partner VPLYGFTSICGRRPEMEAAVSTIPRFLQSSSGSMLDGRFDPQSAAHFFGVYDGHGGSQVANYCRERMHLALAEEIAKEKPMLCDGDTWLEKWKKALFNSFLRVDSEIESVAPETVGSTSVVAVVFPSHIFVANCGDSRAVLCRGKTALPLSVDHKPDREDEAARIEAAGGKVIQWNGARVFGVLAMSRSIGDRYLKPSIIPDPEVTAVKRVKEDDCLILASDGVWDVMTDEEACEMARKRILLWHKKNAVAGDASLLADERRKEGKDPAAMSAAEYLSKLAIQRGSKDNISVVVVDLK
A13D: 27.2%
M176Q: 17.2%
V62E: 0.384%
R69N: 4.99%
F15S: 2.25%
S117M: 0.646%
E109A: 5.21%
V145I: 45%
M68Y: -6.83%
G81T: 35.4%
E38T: 1.98%
T135F: -3.05%
E129H: 17.4%
T17S: 14.4%
F56A: 1.67%

Block 5
Target: Interferon regulatory factor 3, full length, phosphomimetic (IRF3, Homo sapiens, UniProt Q14653, residues 1-427, S386D/S396D/S398D/S402D/T404D/S405D)
Method: protein-binding microarray
Molecule type: double-stranded DNA, one strand shown
Sample: in vitro
Concentration: 2540 nM top
Setting: 60-bp whole probe
Added: salmon DNA 0.4 mg/ml
Baseline: random background probes
Reading: higher = stronger binding
Quantity: fitted relative affinity
Shared flanks, not repeated: GCCTAGCAC … GTCTTGATTCGCTTGACGCTGCTG
Construct (chain): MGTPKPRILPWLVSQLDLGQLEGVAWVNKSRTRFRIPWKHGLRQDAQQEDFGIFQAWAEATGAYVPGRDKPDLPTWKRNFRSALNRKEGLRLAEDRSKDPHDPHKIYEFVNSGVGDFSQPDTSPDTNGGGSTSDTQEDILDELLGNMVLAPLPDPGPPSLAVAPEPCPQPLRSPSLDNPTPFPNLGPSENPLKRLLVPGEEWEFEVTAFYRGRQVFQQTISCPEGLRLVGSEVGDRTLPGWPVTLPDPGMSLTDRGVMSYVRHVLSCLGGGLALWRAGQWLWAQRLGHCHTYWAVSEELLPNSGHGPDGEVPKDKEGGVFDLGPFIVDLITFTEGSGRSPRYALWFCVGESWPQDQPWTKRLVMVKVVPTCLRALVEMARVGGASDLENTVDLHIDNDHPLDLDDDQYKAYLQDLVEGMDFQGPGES
GACGATTCCAGCTTCGAGACGTGCTAG: 0.591 z-score
TTAGACCTGAGTCTCGATTAGTGCTAG: -0.544 z-score
TTAGATATCAGTCTCGATGAGTGCTAG: 1.13 z-score
TTAGGTTTCCTTTTCGTTTAGTGCTAG: 11.8 z-score
AGCTCCCTTTCTCTCTGTGAGTGCTAG: 3.74 z-score
GACGGACTGGGACTGGGGCCGTGCTAG: -0.999 z-score
TTAGGTCTCGGTTTCGCTTAGTGCTAG: 3.82 z-score
TTAAATTTCAGTTTCGATTAGTGCTAG: 6.01 z-score
TTAGGACTGCTTCTGCTTTAGTGCTAG: -0.499 z-score
GTAGATTTCGGGACTGGATTAGTGCTA: 1.55 z-score
GACGGTTTCGGTTTCCGGACGTGCTAG: 10.5 z-score
TTAAGTATCCTACTGCTTTAGTGCTAG: 3.07 z-score
ATTGGTTGAACATGAACTTCGTGCTAG: -0.432 z-score
GACGTTATCAGTTTCGAGACGTGCTAG: 3.59 z-score
TTAGAAATGAGTATCGATTAGTGCTAG: 0.266 z-score
TTAGAACGGGGGTATCGATTAGTGCTA: 0.337 z-score
GGGAGTGTCAATAATGACCACGTGCTA: -0.052 z-score
TTAGAACTGAGTATCGACTAGTGCTAG: -0.289 z-score
GACGATCTCGGTCTCGGGACGTGCTAG: 0.555 z-score
GACGGTTTCCTTCTCGTGACGTGCTAG: 10.4 z-score
TTAGAACTGGGGAATGGATTAGTGCTA: -0.617 z-score
TTAGATCTCCTTCTCCTTTAGTGCTAG: 2.65 z-score
CACTCCACCTCTGTGCTCTTGTGCTAG: 0.425 z-score
TTAGATCTCAGTATCGATTGGTGCTAG: 0.617 z-score
ACATCCAAATCCACCATTCAGTGCTAG: 1.15 z-score

Single results of other studies
PhoQ, residues 284 288 289 292 302 303 SSYNSA  fold induction (PhoP, residues 12 14 15 18 19 LWHCS (Escherichia coli, UniProt P23836); Sort-seq, item: YFP reporter; E. coli; PhoQ-PhoP variant library, added: 10 µM Mg2+; baseline: high Mg2+ state, higher = stronger signaling): 17.3 and 13.4

Excerpt of the above (block 3):
2'F-ANA at 7 8 10 12 13 14: 108 a.u.
2'F-ANA at 2 6 7 10 11 15: 90.4 a.u.
2'F-ANA at 1 5 6 8 10 11 13 14 15: 57.1 a.u.
2'F-ANA at 1 3 4 7 10 14 15: 55.4 a.u.
2'F-ANA at 1 2 4 8 9 10 11 12 15: 58.2 a.u.
2'F-ANA at 2 5 6 10 12 13 14: 45.6 a.u.
2'F-ANA at 3 6 8 9 13 15: 832 a.u.
2'F-ANA at 1 8 11 12 14: 72.2 a.u.
2'F-ANA at 1 3 4 5 6 7 8 10 13 15: 47.6 a.u.
2'F-ANA at 3 5 7 8 10 11 15: 65.8 a.u.
2'F-ANA at 6 8 9 10 11 12 13: 166 a.u.
2'F-ANA at 2 5 8 13 15: 57.3 a.u.
2'F-ANA at 1 2 4 6 7 8 9 10 14 15: 59 a.u.
2'F-ANA at 4 6 8 11 12 13 14 15: 99.2 a.u.
2'F-ANA at 6 9 10 11 12 13 14: 95.2 a.u.
2'F-ANA at 1 3 6 8 9 10 11 13: 71.9 a.u.
